# Measurements of several laboratories.
# Numbered parts are unrelated; each lists some results of a single study.

# Study 1
# Target: Interferon regulatory factor 5, full length, phosphomimetic (IRF5, Homo sapiens, UniProt Q13568-2, residues 1-514, S451D/S453D/S456D/S462D)
# Method: protein-binding microarray
# Molecule type: double-stranded DNA, one strand shown
# Sample: in vitro
# Tested at: 940 nM top
# Notes: 60-bp whole probe
# Together with: salmon DNA 0.4 mg/ml
# Reference: random background probes
# Direction: higher = stronger binding
# Shared flanks, not repeated: GCCTAGCAC … GTCTTGATTCGCTTGACGCTGCTG
Strand,fitted relative affinity [z-score]
CGCCCTCTCAACCATCCTGGGGTGCTA,0.593
GATTCTCCTGCCTCAGCCTCGTGCTAG,0.128
CATTATATTTTAATCACATAGTGCTAG,0.707
TCAAATTTACTTTCTACACTGTGCTAG,1.04
TTTGAACTGGGGTATCGATTAGTGCTA,3.08
TAAGGTATAAACTTGGGAAAGTGCTAG,-0.488
AAAAAAATCATTTTCTCTGTGTGCTAG,0.027
GACGGTCTCCCACTGCTGACGTGCTAG,-0.0046
TTAGGACTGGGGACTGGCTTAGTGCTA,-0.0907
TTAGGACTGCTGCTGCTTTAGTGCTAG,-0.546
TTAGGTATCGGTATCGGTCAGTGCTAG,10.6
TCAACTTTAAATTAGACACTGTGCTAG,-0.00246
CCGAGTCCCTATCTCCTCACGTGCTAG,0.182
GACGGTCTCGGTCTCGGTACGTGCTAG,4.88
GATAATTTATAAATAAAAAAGTGCTAG,-0.0503
TTAGGTTTCGACACTGGCTTAGTGCTA,8.02
TTAGGTTTCGGTTCCGGTCAGTGCTAG,14.8
TCATTAATGCTTCTGGGACTGTGCTAG,0.0825
AGAAATTTCTTTCTAATTCAGTGCTAG,0.514
TCATTTCCATCTCTCAAACTGTGCTAG,1.69
GACGGTTTCCTACTGCAGACGTGCTAG,0.953
TTAGATCTCAATTTCGATTAGTGCTAG,1.46
TTAGATATCAGTATCGATTAGTGCTAG,4.53
AAACAAGTCAATGGCCTTTCGTGCTAG,-0.356

# Study 2
# Target: Fragile X messenger ribonucleoprotein 1, C-terminal low-complexity region (Fmr1, Mus musculus, UniProt P35922)
# Method: RNA Bind-n-Seq
# Molecule type: RNA
# Sample: in vitro
# Tested at: 200 nM
# Notes: whole 134-nt RNA, ends assumed
# Together with: 150 mM KCl
# Reference: input library
# Direction: higher = stronger binding
# Shared flanks, not repeated: GGGAGUUCUACAGUCCGACGAUC … UGGAAUUCUCGGGUGUCAAGG
Strand,log2 enrichment
AGUCCUGUGCUACACAUCGUAUGUACCGAAUCGGGAAAAAGGGAAAAAAAGGGUGGGAAAGUAUUAUGUUACGCCGUUCGGAUCUGCACU,0.422
UUUAAGAGCAGCCAGGGAGAUAGUGGCGUUGACUUGAGUGCCGAGUCUCGGGAGUCGUCUGCGACCUCCUCGCAGCGCAGCUCCCCAUAU,0.687
CUGUGCUACACAUCGUAUGUACCGAAUCGGGGUUUGGGGAAAAAAAGGGGAAAAAAAGGGGAAAGUAUUAUGUUACGCCGUUCGGAUCUG,-0.349
UAACUUUAGAGGAGGAUCUGAUCGAUAUGGCAGUGGACGUGGAUUUGGGGAUGGCUAUAAUGGGUAUGGAGGAGGACCUGGAGGUGGCAA,0.444
UCCUGUGCUACACAUCGUAUGUACCGAAUCGGGGUUUUUUUGGGGUUUGGGGUUUGGGGAAAGUAUUAUGUUACGCCGUUCGGAUCUGCA,0.975
UGCUUCUGAGUUGCCCAGGAGACCACUGGCAGAUGUCCCGGCGAAGAGAAGAGACACAUUGUUGGAAGAAGCAGCCCAUGACAGCUCCCC,0.156
UCCUGUGCUACACAUCGUAUGUACCGAAUCGGUUUUUUGGGGUUUUUUGGGUUUUUUGGAAAGUAUUAUGUUACGCCGUUCGGAUCUGCA,0.107
CACAGACAACACGAACCCACACAGACACAGAGGGAAGGGGUUGGGAUGGGGACAGGGUGCACAGCAGGGCGGGGUAGGACCCCAGCCCCU,1.57
CAAGUCCUGUGCUACACAUCGUAUGUACCGAAUCGGGAAAAAAAGGGUGGGAGGGAAAGUAUUAUGUUACGCCGUUCGGAUCUGCACUUC,0.955
AGGCUAUGGAGGCUAUGAUGAUUACAAUGGCUAUAAUGAUGGCUAUGGAUUUGGGUCAGAUAGAUUUGGAAGAGGUAAGGUAAGAAUUGA,0.301
CCUCAAGUCCUGUGCUACACAUCGUAUGUACCGAAUCGGAAGGAAGGAAGGGAAAGUAUUAUGUUACGCCGUUCGGAUCUGCACUUCCAG,0.286
UCGUUCCCCCCGCCACGAGAAGAAGAAGAAGGUCCGUAAAUACUGGGACGUGCCACCCCCAGGCUUUGAGCACAUCACCCCAAUGCAGUA,0.299
CCUCAAGUCCUGUGCUACACAUCGUAUGUACCGAAUCGGGGUGGUGGGUGGGGAAAGUAUUAUGUUACGCCGUUCGGAUCUGCACUUCCA,1.09
ACCAUGCAGGUGGGCAUUUUUGGGAAGUGGGGCAAGGGGGGGAUAGGGAGGGGGGUAACACUUUGGGAACAGGUGGUCCCAGGUCGUUUC,0.782

# Study 3
# Target: Centromere-binding protein 1, full length, N-terminal tag (CBF1, Saccharomyces cerevisiae, UniProt P17106, residues 1-351)
# Chain of UniProt P17106 (whole entry, looked up): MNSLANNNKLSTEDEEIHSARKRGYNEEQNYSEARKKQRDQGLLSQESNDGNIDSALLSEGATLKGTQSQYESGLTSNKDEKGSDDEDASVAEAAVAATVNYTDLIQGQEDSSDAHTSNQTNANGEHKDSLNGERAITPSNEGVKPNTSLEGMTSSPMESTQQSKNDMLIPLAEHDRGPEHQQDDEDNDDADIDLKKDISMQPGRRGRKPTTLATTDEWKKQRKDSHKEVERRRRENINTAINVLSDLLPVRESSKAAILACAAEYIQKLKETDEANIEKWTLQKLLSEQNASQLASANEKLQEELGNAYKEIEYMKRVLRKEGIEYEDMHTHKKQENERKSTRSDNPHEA
# Method: protein-binding microarray
# Molecule type: double-stranded DNA, one strand shown
# Sample: in vitro
# Tested at: 0.8 µM
# Notes: whole 60-bp probe, no competitor
# Direction: higher = stronger binding
# Shared flanks, not repeated: … GTCTTGATTCGCTTGACGCTGCTG
Strand,fluorescence intensity
CTATGACGCATTTGCAGCATCAGGATTGTTTACTTC,510 a.u.
CTATTACCATTCCTACACGTTATAAGGACTCAGTTC,572 a.u.
GAATTTTTTTCTCATGATGTCATATCCTTTTTATAG,599 a.u.
CTATAAACTATTACCCACGGGATACCTGCTAGGTTC,572 a.u.
GAAGTCAAGGCTTTCCACGAGACGTTCGAATATTAG,558 a.u.
CTAAATATGAGTCGTCACATTAAATGTATGAAGTTC,517 a.u.
GAATGACTTCATACTTGCGTCACCCCGATTTTATAG,533 a.u.
CTAAAAAAAAAAAATAAGTCACGTGCACTCAGTTTC,30800 a.u.
GAACTTCTAATCCATCAGATGGGCCAATAATAGTAG,583 a.u.
GAAGTTAAACGAATGCACGAGTATCATGCATCTTAG,580 a.u.
GAATTTGATAATTCACGTGTAATTAAGAACATCTAG,3770 a.u.
GAAAAAACAATGCCGCACCTGAGGGAGAACAAATAG,531 a.u.
CTAGTACATCTAATTTACGTGACCTAGACGTTGTTC,703 a.u.
CTAACTCAGGTCCAGAACGTGACACATCTTTGCTTC,1830 a.u.
TGTACGAAGCTATAGAACGTGGTTATAGTAGTTAGG,566 a.u.
GAAATAAAAATTATGAACGTGTCTAGCTACATATAG,570 a.u.
CTATCCAGAGTAATCCTGATGTTCTATTACCGATTC,483 a.u.
CTAGTGACTCGAGACCACGTGGAAAGATCCAACTTC,4490 a.u.
CTACTGGTTACCCTGCATGTGATATGTGATTACTTC,2210 a.u.
CCTAACTACTATATCATCGTGTAATAGCTTCGTACA,530 a.u.
CTACGGGTGATGCGTGACGCGTTTTTGGAAACGTTC,1110 a.u.

# Study 4
# Target: RING finger protein unkempt homolog, zinc fingers 1-6, SBP tag (UNK, Homo sapiens, UniProt Q9C0B0, residues 30-357)
# Chain of UniProt Q9C0B0 (30-357, looked up): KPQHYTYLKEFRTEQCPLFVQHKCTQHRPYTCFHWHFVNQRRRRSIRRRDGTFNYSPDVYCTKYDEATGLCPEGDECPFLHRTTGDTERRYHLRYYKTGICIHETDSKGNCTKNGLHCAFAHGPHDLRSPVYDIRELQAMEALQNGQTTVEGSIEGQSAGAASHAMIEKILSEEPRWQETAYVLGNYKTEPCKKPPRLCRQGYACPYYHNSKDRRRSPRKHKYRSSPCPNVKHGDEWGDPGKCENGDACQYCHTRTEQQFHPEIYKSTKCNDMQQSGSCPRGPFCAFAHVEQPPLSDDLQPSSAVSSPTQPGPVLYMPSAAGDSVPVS
# Method: RNA Bind-n-Seq
# Molecule type: RNA
# Sample: in vitro
# Tested at: 100 nM
# Notes: RNA with constant flanks, vertebrate orthologous sites, ends assumed
# Reference: input RNA pool
# Direction: higher = stronger binding
# Shared flanks, not repeated: GGGAGUUCUACAGUCCGACGAUC … CAACAGAGGAUUGAGCAUCA
Strand,bound/input enrichment [ratio]
GUUGUGAUCCCUUUAAUAUACACAAAAAAUUUUCAAGGAAAAACUUGCAUGUAAUUGACAUAAAUGAUGCUACUUUUCUAAGUGCCAAGUUUGGACGGCAGUUUAUACCUGGCUGGAAGC,0.634
AAAUUUAUUUCAUGCCCUGGACUCCAUAUCGUACUGAUACUUUGAUAGAAUAUGCUUCUUUAGAAGAUUUCCAAAACAGUCGCCAAACAACAACAUACAAACUUCCAAAUCGAGUAGAUG,1.14
AGGAAAUGCUGGCUGCAAACCCUCAGGAUCGUCCAGAUGCUUUUGAACUAGAACUCAGAUUAGUACAAAUCGCAUUUAAAGAUAGCAGCUGGGAAACGUGACACACAUUAUUUGCAAAUA,0.872
GAGUGCUUAAACCGCCAACAGUUAGAAGAUGUUAUUUAUUUGUGUCUGUAAGUUUGUACAUAGUAAUGCCAGCCUUGUUGCUGAAUUUUUUAUGUGGGGGGAGAUGAGUUUGAAUUUUGU,1.7
CUUAACCCCAUCUCUUCUGUUUCCUAGUGCCGCCGAGAGCGUCCUCUCUGACUCUUUCAUUAGCGAACUCAUUUUAAUUUUAGAAAAAACUUUCAGCAUCGUUGCUGACAGCUGCUCUAC,2.14
UACUAGCGUCAUACCAGCAUAUUAACUAGUCAUAUGUGCACAGCUUAAAAGGUAACAGUUUAGUUAUAUUUUUUAAUUUAAGAACGGCUUUUUCCCAAGACUGAAAAAGAAGCUACAAUU,2.58
GUGACUUUGGGCGUCCGCACAGCCUGGGGAGGGUGACUGUGUAGUGUAGUCCCGGCAGGUUAGCUUUCCUUCUUUGGGUUGUAGGCCUGUGCUGCAAACAUGAUCCGCCAGAUCAUCGGU,0.455
ACUGUUGUUAAGCACUGUGUUCCAGACCGUGGCUGACGUAGUGUAACCUAGGUGAUCUAGUUUCAUUCGGAUGGACUCGGGGUGGGGGAGCAGGGCAGCCCCGCCCCUUCCCGUGUCCCG,0.527
AGCAACUCUUACAGUCAGUCUUAGGUGUUACCAAGAACAGAUCUCAAUUGUAAGAGUUGUCAGCACAGCUUUUCUUUUUUCUUUUUGUUUUUGUUAUUGUUUUUUUUUUCUUUUUUUAAA,2.03
AAACUAUACUUAUACUGUCUUACAGCAUUUGUGAAUAUUUUAUGAGUCAACAUGUAAAGCUAGAGUCUUUGUUAAAUCAGUGAGAUUAAUGUAAAUAAAAUGUUUUUAUUUGCUUUGAAA,0.213
GAUCAAUAGAAUUACAUAAUACUAAAGUUGCAGUUGAAAGGAUAUCCAAGUAUGUGUUCGUAGUUACUAAAAGAAUUAUAGCUGUUAUUGCCUUGUAUUUAUAGCCCUUGUUUCAGGUUU,2.46

# Some of these lines once more (study 3):
Strand,fluorescence intensity
CTATTACCATTCCTACACGTTATAAGGACTCAGTTC,572 a.u.
GAATGACTTCATACTTGCGTCACCCCGATTTTATAG,533 a.u.
CCTAACTACTATATCATCGTGTAATAGCTTCGTACA,530 a.u.
GAAATAAAAATTATGAACGTGTCTAGCTACATATAG,570 a.u.
CTATCCAGAGTAATCCTGATGTTCTATTACCGATTC,483 a.u.
CTAGTACATCTAATTTACGTGACCTAGACGTTGTTC,703 a.u.
CTACGGGTGATGCGTGACGCGTTTTTGGAAACGTTC,1110 a.u.
